# Results of several laboratories.
# Compare with care: the assays were run in different laboratories. ± gives the spread as reported.
Compound,cell line,assay,system,setting,how to read,measurement,value
Cc1c2ccnc(C(=O)N[C@H](C)CN(C)C)c2cc2c3cc(OCCCN4CCN(C)CC4)ccc3n(C)c12,patient-derived LCL and iPSC,cell proliferation,,"concentration not given, 4 days, outcome no effect",,cell viability,no effect
CN1CCCNC(=O)c2cccc(c2)C(=O)NCCCN(C)CCCNc2cccc3c2C(=O)c2cccc(c2C3=O)NCCC1,Ca9-22,CCK-8,,"0.5 µM, 48 h",relative to: untreated,viability,38.2%
Cc1ccc2ccc(F)c(O)c2n1,MDCK-II low-efflux (RRCK) cells,,,"1.5 h, apical to basal",,Papp,2.6 ×10⁻⁶ cm/s
Cc1nc2cccc(OCC(C)(C)C(=O)NC(C)C)c2c(N)c1C(=O)[O-].[Na+],human peripheral blood lymphocytes,,,"125 g/mL, 20 h, without S9",,relative mitotic index,108%
C1=Cc2ccccc2N(Cc2cc(-c3ccccc3)no2)c2ccccc21,BJ,cytotoxicity,,,,IC50,> 30 µM
Cc1c2c(=O)n(-c3ccccn3)n(Cc3ccc(C4(C(F)(F)F)N=N4)cc3)c2cc(=O)n1Cc1cccc(Cl)n1,HEp-2,cytotoxicity,,48 (unit not given),,Hill slope,~-1280
CCOc1ccc(-c2cc(CN3c4ccccc4C=Cc4ccccc43)on2)cc1,BJ,cell growth or viability,,,,IC50,47.3 µM
CC[C@H](C)[C@H](NC(=O)[C@@H](NC(=O)[C@@H](N)CO)[C@@H](C)CC)C(=O)N[C@@H](CC(N)=O)C(=O)N[C@@H](Cc1ccccc1)C(=O)N[C@@H](CCC(=O)O)C(=O)N[C@@H](CCCCNC(=O)c1ccc2c(c1)C(=O)OC21c2ccc(O)cc2Oc2cc(O)ccc21)C(=O)N[C@@H](CC(C)C)C(=O)O,"PANC-1, microinjected single cells","proteolysis, CE-LIF",within cells,"100 µM, 2 min, 37 °C",,degradation rate,8.9e+06 ± 100000 M⁻¹ s⁻¹
COc1cc(/C=C2\CNC/C(=C\c3cc(Cl)c(O)c(OC)c3)C2=O)cc(Cl)c1O,PC-12,MTT,,"range over 3.75 to 60 µM, 24 and 48 h",,cytotoxicity,not toxic
Cc1ccc(C)c(/C=C/C(=O)c2ccc(O)cc2)c1,U-87 MG,"cell growth, MTT",,72 h,,IC50,> 20 µM
O=C(c1ccc(-c2cccc(C(F)(F)F)c2)cc1)N1CCN(c2ncccn2)CC1,MDCK-LE cells,,,,,Papp A-B,22 ×10⁻⁶ cm/s
O=C(O)CCCOc1ccc(O)cc1-c1cc(-c2ccccc2C(F)(F)F)n(-c2ccccc2)n1,human iPSC-derived cardiomyocytes,,,2 µM,,beat rate,45.5 ± 2.7 min⁻¹
COc1c(F)c(F)c(Cn2c3cc(=O)n(Cc4cccc(Cl)n4)c(C)c3c(=O)n2-c2ncc(F)cc2F)c(F)c1F,HEp-2,,,48 (unit not given),,CC50,> 45 µM
COc1cc(Oc2c(O)cc(C)cc2OC)c(C(=O)O)c(C)c1O,T47D,MTT,,"10 or 50 µM, 48 h",,viability,106 ± 5.8%
Cc1cccnc1-c1csc(C(=O)Nc2cc(Cl)cc(NS(C)(=O)=O)c2)c1,BJ,"cell growth or viability, ATP luminescence",,10 days,,CC50,> 10 µM
O=[N+]([O-])c1cccc(-c2cc(CN3c4ccccc4C=Cc4ccccc43)on2)c1,BJ,cytotoxicity,,,,IC50,> 30 µM
COc1cc(N2CCN(C(=O)C3CCCN3)CC2)ccc1Nc1ncc(Cl)c(Nc2ccccc2P(C)(C)=O)n1 (centres unmarked),NCI-H3122,"cell growth or viability, CCK-8",,"0.25 µM, 48 h",,viability,20%
COc1cc(Oc2c(OC)cc(C)c(Br)c2O)c(C(=O)O)c(C)c1O,T47D,MTT,,"10 or 50 µM, 48 h",,viability,112 ± 10%
O=C1c2c(O)cc(O)cc2-c2c(-c3ccc(O)cc3)oc3cc(O)cc1c23,LCC2 shControl cells,"label-free MS proteomics, measured: CYP1B1",,10 µM,relative to: DMSO,protein level ratio,37.5
Cc1ccc2ccc(Cl)c(O)c2n1,MDCK-II low-efflux (RRCK) cells,,,"1.5 h, apical to basal",,Papp,4 ×10⁻⁶ cm/s
Cc1cccc(-c2cc(CN3c4ccccc4C=Cc4ccccc43)on2)c1,BJ,cytotoxicity,,,,IC50,> 30 µM
O=C1C(=O)c2[nH]cc3c2C(=C1Cl)NCC3,HCT-116,"cell growth or viability, MTT",,72 h,,CC50,25 µM
O=C(/C=C/c1cccc(C(F)(F)F)c1)c1cccc(O)c1,U-87 MG,"cell growth, MTT",,72 h,,IC50,7.53 ± 1 µM
O=[N+]([O-])c1ccccc1-c1cc(CN2c3ccccc3C=Cc3ccccc32)on1,BJ,cytotoxicity,,,,IC50,> 30 µM
CC[C@H](C)[C@H](N)C(=O)N[C@@H](CC(C)C)C(=O)N[C@@H](CCCNC(=N)N)C(=O)N[C@@H](Cc1c[nH]c2ccccc12)C(=O)N[C@@H](CO)C(=O)N[C@@H](CCCNC(=N)N)C(=O)N[C@@H](CCCCN)C(=O)N[C@@H](CC(C)C)C(=O)N1CCC[C@H]1C(=O)N[C@@H](CS)C(=O)N[C@H](C(=O)N[C@@H](CO)C(=O)O)C(C)C,SUP-T1,12G5 competition,human plasma,2 h,relative to: time 0,IC50 fold increase,12 fold
Clc1ccc2c(c1)N(CCCN1CCN(CCn3cc(CN4CCCNCCN(Cc5cn(CCN6CCN(CCCN7c8ccccc8Sc8ccc(Cl)cc87)CC6)nn5)CCCNCC4)nn3)CC1)c1ccccc1S2.[Cu+2].[O-][Cl+3]([O-])([O-])[O-].[O-][Cl+3]([O-])([O-])[O-],differentiated SH-SY5Y,,,"10 µM, 24 h, compound alone",relative to: vehicle,cytotoxicity,not toxic
O=C(c1ccc(C23CC(S(F)(F)(F)(F)F)(CO2)C3)cc1)N1CCN(c2ncccn2)CC1,MDCK-LE cells,,,"time not given, apical to basolateral",,recovery,58%
Cc1ccc(S(=O)(=O)n2cc3c4c2C(=O)C(N)=CC4=NCC3)cc1,HCT-116,"cell growth or viability, MTT",,72 h,,CC50,1.5 µM
CC(C)N1C/C(=C\c2cc(Cl)c(O)c(Cl)c2)C(=O)/C(=C/c2cc(Cl)c(O)c(Cl)c2)C1,PC-12,MTT,,"range over 3.75 to 60 µM, 24 and 48 h",,cytotoxicity,not toxic
COc1c(F)c(F)c(Cn2c3cc(=O)n(Cc4cccc(Cl)n4)c(C)c3c(=O)n2-c2ccccn2)c(F)c1F,HEp-2,,,48 (unit not given),,CC50,> 5 µM
C=CC(=O)Nc1cc(Nc2nccc(-c3cn(C)c4ccccc34)n2)c(OCC(F)(F)F)nc1N(C)CCN(C)C,human hepatocytes lot LTG,"CYP1A2 enzyme activity, inducer",,10 µM,relative to: omeprazole 100 µM,induction,20.2%
N#Cc1cccc(-c2cc(CN3c4ccccc4C=Cc4ccccc43)on2)c1,BJ,cytotoxicity,,,,IC50,> 30 µM
COc1c(F)c(F)c(Cn2c3cc(=O)n(Cc4cccc(C(F)(F)F)n4)c(C)c3c(=O)n2-c2ncc(F)cc2F)c(F)c1F,HEp-2,cytotoxicity,,48 (unit not given),,Hill slope,1.18
O=C(c1ccc(OCCN2CCCCC2)cc1)c1c(-c2ccc(O)cc2)sc2cc(O[C@@H]3O[C@H](C(=O)O)[C@@H](O)[C@H](O)[C@H]3O)ccc12,cholesterol-loaded Sf9 control vesicles,vesicular transport,,"10 µM, 3 min, pH 7",relative to: AMP control,transport ratio,3.1 ± 0.2
COc1c(F)c(F)c(Cn2c3cc(=O)n(Cc4cccc(C(F)(F)F)n4)c(C)c3c(=O)n2-c2ccccn2)c(F)c1F,HEp-2,,,48 (unit not given),,CC50,> 5 µM
C[N+]1=C2C=C(NCCc3c[nH]c4ccccc34)C(=O)c3[nH]cc(c32)CC1,HCT-116,"cell growth or viability, MTT",,72 h,,CC50,0.3 µM
CCC(=CCc1c(O)cc2c(c1O)C(=O)CC(c1ccc(O)cc1)O2)CC (centres unmarked),HeLa,"cytotoxicity, MTT",,"48 h, added: S9 fraction",,log IC50,1.08 log µM
Clc1cccc(-c2cc(CN3c4ccccc4C=Cc4ccccc43)on2)c1,BJ,cytotoxicity,,,,IC50,> 30 µM
CC1(C)C(NC(=O)C(=NOC2(C(=O)O)CC2)c2csc(N)n2)C(=O)N1OS(=O)(=O)O (centres unmarked),human normal esophageal epithelial,,,,,CC50,> 100 µM
O=[N+]([O-])c1ccc(-c2cc(CN3c4ccccc4C=Cc4ccccc43)on2)cc1,BJ,cytotoxicity,,,,IC50,> 30 µM
COc1cc(C(=O)/C=C/c2ccc(OC(F)F)cc2)ccc1O,U-87 MG,"cell growth, MTT",,72 h,,IC50,15.06 ± 0.09 µM

# Excerpt of the above:
Compound,cell line,assay,system,setting,how to read,measurement,value
Cc1cccnc1-c1csc(C(=O)Nc2cc(Cl)cc(NS(C)(=O)=O)c2)c1,BJ,"cell growth or viability, ATP luminescence",,10 days,,CC50,> 10 µM
O=[N+]([O-])c1cccc(-c2cc(CN3c4ccccc4C=Cc4ccccc43)on2)c1,BJ,cytotoxicity,,,,IC50,> 30 µM
COc1cc(N2CCN(C(=O)C3CCCN3)CC2)ccc1Nc1ncc(Cl)c(Nc2ccccc2P(C)(C)=O)n1 (centres unmarked),NCI-H3122,"cell growth or viability, CCK-8",,"0.25 µM, 48 h",,viability,20%
COc1cc(Oc2c(OC)cc(C)c(Br)c2O)c(C(=O)O)c(C)c1O,T47D,MTT,,"10 or 50 µM, 48 h",,viability,112 ± 10%
